Experimental data of several laboratories.
Lines come from different studies, so protocols differ. ± gives the spread as reported.
Cell line: PC-3

SMILES	test	conditions	how to read	measurement	value
O=C(O)CCC(NP(=O)(O)OCCC[C@@H](NC(=O)CCC(NC(=O)c1ccc([18F])cc1)C(=O)O)C(=O)O)C(=O)O (stereo partly shown)		1 h		cell uptake	0.18 ± 0.13%
C[P+](c1ccccc1)(c1ccccc1)c1ccccc1	cell growth or viability, MTT	72 h		GI50	5.01 µM
CCCCCCCCc1ccc(C(=O)N[C@@H](CO)C(=O)N[C@H](C(=O)N[C@@H](C)C(=O)N[C@H](C(=O)O)[C@@H](C)CC)[C@@H](C)OP(=O)(O)O)cc1	cell growth or viability, MTT	72 h		IC50	55.7 µM
CSCC[C@H](NC(=O)[C@H](CC(C)C)NC(=O)[C@H](Cc1c[nH]cn1)NC(=O)CNC(=O)[C@@H](NC(=O)[C@H](C)NC(=O)[C@H](Cc1c[nH]c2ccccc12)NC(=O)[C@H](CCC(N)=O)NC(=O)CCCCCCCNC(=S)Nc1ccc(C[C@H]2CN(CC(=O)O)CCN(CC(=O)O)CCN2CC(=O)O)cc1)C(C)C)C(N)=O [copper-64 labelled]		1 nM, 37 °C		maximum internalization	896 fmol/mg
CSCC[C@H](NC(=O)[C@H](CC(C)C)NC(=O)[C@H](Cc1c[nH]cn1)NC(=O)CNC(=O)[C@@H](NC(=O)[C@H](C)NC(=O)[C@H](Cc1c[nH]c2ccccc12)NC(=O)[C@H](CCC(N)=O)NC(=O)CCCCCCCNC(=O)[C@@H](CCCCNC(=O)Cn1ccnc1[N+](=O)[O-])NC(=O)[C@@H](CCCCNC(=O)Cn1ccnc1[N+](=O)[O-])NC(=O)[C@@H](CCCCNC(=O)Cn1ccnc1[N+](=O)[O-])NC(=O)CN1CCN(CC(=O)O)CCN(CC(=O)O)CCN(CC(=O)O)CC1)C(C)C)C(N)=O [indium-111 labelled]		concentration not given, 8 h, normoxia		retained internalized radioactivity	29.7%
CCCc1cc(OC)c(OC)c(OC)c1OC	cell growth or viability, MTT	72 h		GI50	> 250 µM
Cc1nn(-c2ccccc2)c(O)c1C(c1ccccc1[N+](=O)[O-])c1c(C)nn(-c2ccccc2)c1O	cell growth or viability, MTT	48 h		IC50	> 40 µM
C=CCc1cc2c(c(OC)c1OC)OCO2	cell growth or viability, MTT	72 h		GI50	> 250 µM
O=C(O)CCC(NP(=O)(O)OCCC[C@@H](NC(=O)CCC(NC(=O)CCCCCNC(=O)CCCCCNC(=O)c1ccc([18F])cc1)C(=O)O)C(=O)O)C(=O)O (stereo partly shown)		2 h		cell uptake	0.15 ± 0.01%
Cc1nn(-c2ccccc2)c(O)c1C(c1cccc([N+](=O)[O-])c1)c1c(C)nn(-c2ccccc2)c1O	cell growth or viability, MTT	48 h		IC50	30.3 µM
CC(C)C12OC1C1OC13C1(C)CCC4=C(COC4=O)C1CC1OC13C2OC(=O)CCCOC1OC(CO)C(O)C(O)C1O (stereo not shown)	cell growth, [3H]-thymidine incorporation	48 h, 20% oxygen normoxia		IC50	0.427 µM
Cc1ccc(C(c2c(C)nn(-c3ccccc3)c2O)c2c(C)nn(-c3ccccc3)c2O)cc1	cell growth or viability, MTT	48 h		IC50	28.5 µM
CSCC[C@H](NC(=O)[C@H](CC(C)C)NC(=O)[C@H](Cc1c[nH]cn1)NC(=O)CNC(=O)[C@@H](NC(=O)[C@H](C)NC(=O)[C@H](Cc1c[nH]c2ccccc12)NC(=O)[C@H](CCC(N)=O)NC(=O)CCCCCCCNC(=O)[C@@H](CO)NC(=O)[C@@H](CO)NC(=O)[C@@H](CO)NC(=O)CN1CCN(CC(=O)O)CCN(CC(=O)O)CCN(CC(=O)O)CC1)C(C)C)C(N)=O [indium-111 labelled]		concentration not given, 8 h, hypoxia		retained internalized radioactivity	41.4%
CC(C)=CCC/C(C)=C/C[P+](c1ccccc1)(c1ccccc1)c1ccccc1	cell growth or viability, MTT	72 h		GI50	0.296 µM
COc1ccc(C(c2c(C)nn(-c3ccccc3)c2O)c2c(C)nn(-c3ccccc3)c2O)cc1	cell growth or viability, MTT	48 h		IC50	30.5 µM
[Cl][Au-][P+](c1ccccc1)(c1ccccc1)c1cc[cH-]c1.[Cl][Au-][P+](c1ccccc1)(c1ccccc1)c1cc[cH-]c1.[Cl][Ti+2][Cl]	cell growth or viability, XTT			IC50	18.9 µM
CSCC[C@H](NC(=O)[C@H](CC(C)C)NC(=O)[C@H](Cc1c[nH]cn1)NC(=O)CNC(=O)[C@@H](NC(=O)[C@H](C)NC(=O)[C@H](Cc1c[nH]c2ccccc12)NC(=O)[C@H](CCC(N)=O)NC(=O)CCCCCNC(=O)CCN(CCNC(=O)c1ccc(F)cc1)CCC(=O)NCCCC[C@@H]1NC(=O)[C@@H](Cc2ccc(O)cc2)NC(=O)[C@H](CC(=O)O)NC(=O)CNC(=O)[C@H](CCCNC(=N)N)NC1=O)C(C)C)C(N)=O [fluorine-18 labelled]		30 min, 37 °C	reference: added radioactivity	cellular uptake	4.38 ± 0.17%
COc1c(C)cc2c(c1OC)OCO2	cell growth or viability, MTT	72 h		GI50	> 250 µM
O=C(O)CCC(NP(=O)(O)OCCC[C@@H](NC(=O)CCC(NC(=O)CCCCCNC(=O)c1ccc([18F])cc1)C(=O)O)C(=O)O)C(=O)O (stereo partly shown)		1 h		cell uptake	0.04 ± 0.01%
CCCCCCCCCCCCCCCC[P+](c1ccccc1)(c1ccccc1)c1ccccc1	cell growth or viability, MTT	72 h		GI50	0.25 µM
CSCC[C@H](NC(=O)[C@H](CC(C)C)NC(=O)[C@H](Cc1c[nH]cn1)NC(=O)CNC(=O)[C@@H](NC(=O)[C@H](C)NC(=O)[C@H](Cc1c[nH]c2ccccc12)NC(=O)[C@H](CCC(N)=O)NC(=O)CNC(=O)[C@H](CO)NC(=O)CNC(=O)CCCCCCCNC(=O)CCC(=O)Nc1ccc(CNC23CNCCNCC(N)(CNCCNC2)CNCCNC3)cc1)C(C)C)C(N)=O [copper-64 labelled]		0 to 60 min		initial internalization rate	3.2 fmol/mg/min
COc1cc(C)c(OC)c(OC)c1OC	cell growth or viability, MTT	72 h		GI50	> 250 µM
CSCC[C@H](NC(=O)[C@H](CC(C)C)NC(=O)[C@H](Cc1c[nH]cn1)NC(=O)CNC(=O)[C@@H](NC(=O)[C@H](C)NC(=O)[C@H](Cc1c[nH]c2ccccc12)NC(=O)[C@H](CCC(N)=O)NC(=O)CCCCCCCNC(=O)[C@@H](CO)NC(=O)[C@@H](CO)NC(=O)[C@@H](CCCCNC(=O)Cn1ccnc1[N+](=O)[O-])NC(=O)CN1CCN(CC(=O)O)CCN(CC(=O)O)CCN(CC(=O)O)CC1)C(C)C)C(N)=O [indium-111 labelled]		concentration not given, 8 h, hypoxia		retained internalized radioactivity	60.7%
COc1cc(C)c(OC)c2c1OCO2	cell growth or viability, MTT	72 h		GI50	> 250 µM
CCCNC(=O)[C@H](CC(C)C)NC(=O)[C@H](Cc1c[nH]cn1)NC(=O)CNC(=O)[C@@H](NC(=O)[C@H](C)NC(=O)[C@H](Cc1c[nH]c2ccccc12)NC(=O)[C@H](CCC(N)=O)NC(=O)[C@@H](Cc1ccccc1)NC(=O)CCCCCNC(=O)CN1CCN(CC(=O)O)CCN(CC(=O)O)CCN(CC(=O)O)CC1)C(C)C [indium-111 labelled]		60 min, 37 °C		internalization	12%
